Measured values of several laboratories.
Compare with care: the assays were run in different laboratories. Numbers after ± are the reported error.
SLC10A1: Hepatic sodium/bile acid cotransporter (SLC10A1, Homo sapiens, UniProt Q14973)
Sequence of UniProt Q14973 (whole entry, looked up): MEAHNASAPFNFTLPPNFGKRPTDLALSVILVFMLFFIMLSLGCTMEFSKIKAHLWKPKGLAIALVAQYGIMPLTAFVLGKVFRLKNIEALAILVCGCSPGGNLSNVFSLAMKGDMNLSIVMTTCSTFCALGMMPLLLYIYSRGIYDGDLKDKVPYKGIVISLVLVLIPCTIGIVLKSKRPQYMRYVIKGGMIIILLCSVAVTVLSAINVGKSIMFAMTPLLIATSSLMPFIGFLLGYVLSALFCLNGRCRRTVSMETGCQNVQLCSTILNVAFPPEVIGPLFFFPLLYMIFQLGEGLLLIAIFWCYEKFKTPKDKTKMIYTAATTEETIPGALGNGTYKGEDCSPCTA
Cyp2b1: Cytochrome P450 2B1 (Cyp2b1, Rattus norvegicus, UniProt P00176)
Sequence of UniProt P00176 (whole entry, looked up): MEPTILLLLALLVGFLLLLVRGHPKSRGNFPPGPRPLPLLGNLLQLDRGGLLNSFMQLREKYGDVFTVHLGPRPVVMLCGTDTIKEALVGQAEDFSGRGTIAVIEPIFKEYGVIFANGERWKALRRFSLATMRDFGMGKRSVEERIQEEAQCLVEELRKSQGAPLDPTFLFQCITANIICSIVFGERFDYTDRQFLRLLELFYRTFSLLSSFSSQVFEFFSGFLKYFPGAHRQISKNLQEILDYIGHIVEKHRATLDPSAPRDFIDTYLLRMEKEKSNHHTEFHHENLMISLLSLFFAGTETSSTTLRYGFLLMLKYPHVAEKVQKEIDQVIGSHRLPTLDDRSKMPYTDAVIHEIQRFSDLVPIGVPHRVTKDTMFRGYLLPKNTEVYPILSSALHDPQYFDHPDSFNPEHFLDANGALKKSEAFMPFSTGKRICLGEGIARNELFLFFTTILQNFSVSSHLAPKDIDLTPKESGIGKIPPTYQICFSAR
Sequence of UniProt O15379 (whole entry, looked up): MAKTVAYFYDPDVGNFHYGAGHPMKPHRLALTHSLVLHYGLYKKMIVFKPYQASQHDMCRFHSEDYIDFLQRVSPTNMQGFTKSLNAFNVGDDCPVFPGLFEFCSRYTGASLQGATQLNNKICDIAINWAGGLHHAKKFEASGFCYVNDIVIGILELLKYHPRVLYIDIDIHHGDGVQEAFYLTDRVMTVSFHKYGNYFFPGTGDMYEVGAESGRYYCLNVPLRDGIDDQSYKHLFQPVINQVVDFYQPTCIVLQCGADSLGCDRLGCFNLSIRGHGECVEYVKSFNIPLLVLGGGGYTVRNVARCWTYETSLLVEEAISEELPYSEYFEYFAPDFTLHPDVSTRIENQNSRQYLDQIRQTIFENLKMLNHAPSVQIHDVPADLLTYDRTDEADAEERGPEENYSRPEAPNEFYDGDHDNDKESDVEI
Sequence of UniProt P29275 (whole entry, looked up): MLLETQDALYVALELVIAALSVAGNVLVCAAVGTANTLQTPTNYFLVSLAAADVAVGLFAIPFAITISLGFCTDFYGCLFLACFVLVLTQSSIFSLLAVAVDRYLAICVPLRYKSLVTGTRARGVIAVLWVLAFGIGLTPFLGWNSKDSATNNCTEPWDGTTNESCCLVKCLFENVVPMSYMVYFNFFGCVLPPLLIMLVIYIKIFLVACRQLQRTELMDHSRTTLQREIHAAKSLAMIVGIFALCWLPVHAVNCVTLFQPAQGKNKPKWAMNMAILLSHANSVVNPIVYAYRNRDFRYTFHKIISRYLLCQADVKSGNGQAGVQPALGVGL
Sequence of UniProt Q14432 (whole entry, looked up): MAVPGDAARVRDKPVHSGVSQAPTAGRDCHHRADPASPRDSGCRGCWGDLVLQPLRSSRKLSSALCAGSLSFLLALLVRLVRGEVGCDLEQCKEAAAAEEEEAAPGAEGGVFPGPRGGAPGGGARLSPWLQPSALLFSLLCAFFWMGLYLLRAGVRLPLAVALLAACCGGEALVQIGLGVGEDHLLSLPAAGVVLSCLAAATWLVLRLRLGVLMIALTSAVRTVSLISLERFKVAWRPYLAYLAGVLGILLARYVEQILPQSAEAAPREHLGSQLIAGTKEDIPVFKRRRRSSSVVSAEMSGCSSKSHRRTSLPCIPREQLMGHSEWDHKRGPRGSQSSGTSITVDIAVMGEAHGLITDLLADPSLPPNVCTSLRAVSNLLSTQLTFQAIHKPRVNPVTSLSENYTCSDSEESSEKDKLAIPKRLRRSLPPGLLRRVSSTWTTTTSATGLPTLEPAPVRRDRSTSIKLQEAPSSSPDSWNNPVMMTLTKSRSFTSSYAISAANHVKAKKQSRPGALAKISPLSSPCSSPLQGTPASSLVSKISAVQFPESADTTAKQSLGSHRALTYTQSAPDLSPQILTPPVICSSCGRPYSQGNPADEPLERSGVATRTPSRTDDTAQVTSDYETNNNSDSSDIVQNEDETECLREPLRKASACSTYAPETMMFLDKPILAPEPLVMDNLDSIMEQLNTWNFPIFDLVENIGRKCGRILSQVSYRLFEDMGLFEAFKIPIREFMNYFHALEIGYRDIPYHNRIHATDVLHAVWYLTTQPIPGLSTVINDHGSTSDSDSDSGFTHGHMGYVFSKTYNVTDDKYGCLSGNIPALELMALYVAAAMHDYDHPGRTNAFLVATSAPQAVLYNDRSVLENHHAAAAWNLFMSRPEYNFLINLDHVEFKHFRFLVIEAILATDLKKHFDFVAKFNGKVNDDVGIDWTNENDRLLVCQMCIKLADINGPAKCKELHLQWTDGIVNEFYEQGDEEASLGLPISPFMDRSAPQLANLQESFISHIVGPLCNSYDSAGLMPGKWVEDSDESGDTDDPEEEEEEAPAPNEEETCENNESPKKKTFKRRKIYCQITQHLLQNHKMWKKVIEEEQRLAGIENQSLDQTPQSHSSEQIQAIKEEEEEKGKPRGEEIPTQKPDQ
Sequence of UniProt P52790 (whole entry, unmodified, looked up): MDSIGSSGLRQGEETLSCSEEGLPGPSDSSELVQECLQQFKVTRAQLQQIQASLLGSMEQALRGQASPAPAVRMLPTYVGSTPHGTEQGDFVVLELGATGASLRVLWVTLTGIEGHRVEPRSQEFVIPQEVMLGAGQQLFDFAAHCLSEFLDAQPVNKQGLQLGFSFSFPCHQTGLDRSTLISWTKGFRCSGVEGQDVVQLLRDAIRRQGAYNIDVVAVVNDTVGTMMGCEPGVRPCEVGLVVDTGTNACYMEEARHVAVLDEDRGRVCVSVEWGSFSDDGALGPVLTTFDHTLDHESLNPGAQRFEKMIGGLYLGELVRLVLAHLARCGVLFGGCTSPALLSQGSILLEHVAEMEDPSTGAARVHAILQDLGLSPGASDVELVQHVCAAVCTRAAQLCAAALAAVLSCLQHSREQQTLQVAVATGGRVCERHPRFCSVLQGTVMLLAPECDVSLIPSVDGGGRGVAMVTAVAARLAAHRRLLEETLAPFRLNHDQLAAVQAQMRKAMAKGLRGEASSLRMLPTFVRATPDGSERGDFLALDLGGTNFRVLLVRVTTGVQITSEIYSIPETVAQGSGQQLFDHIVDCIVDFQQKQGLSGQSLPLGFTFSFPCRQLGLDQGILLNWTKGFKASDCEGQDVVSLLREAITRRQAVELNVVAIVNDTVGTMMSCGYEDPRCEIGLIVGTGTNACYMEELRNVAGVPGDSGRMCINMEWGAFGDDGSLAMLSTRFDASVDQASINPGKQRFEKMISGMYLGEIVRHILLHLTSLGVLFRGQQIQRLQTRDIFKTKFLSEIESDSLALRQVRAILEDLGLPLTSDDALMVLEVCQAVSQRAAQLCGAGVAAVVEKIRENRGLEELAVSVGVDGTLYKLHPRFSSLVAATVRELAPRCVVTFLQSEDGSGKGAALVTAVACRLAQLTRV

Structure (SMILES) | target | assay | system | setting | Ki
Cc1ccc([C@H]2C[C@@H]2COc2cc(NCc3nnc(C)s3)nc(C)n2)nc1 | PDE3A (Homo sapiens, UniProt Q14432) | enzyme activity, inhibitor, IMAP fluorescence polarization |  | together with: cAMP substrate | > 50 µM
Nc1nc2c(ncn2COCCO)c(=O)[nH]1 | SLC10A1 | taurocholate uptake, inhibitor | NTCP-expressing HEK293 | together with: 10 µM taurocholate | 202 ± 52 µM
O=C(/C=C/c1cccc(OS(=O)(=O)Oc2ccc(C(F)(F)F)cc2)c1)NO | Histone deacetylase 3, with NCoR2 DAD (HDAC3, Homo sapiens, UniProt O15379) | enzyme activity, inhibitor, fluorogenic |  |  | 0.041 µM
O=c1n(CCCN2CCN(c3cccc(Cl)c3)CC2)nc2ccccn12 | ADORA2B (Homo sapiens, UniProt P29275) |  |  |  | > 10 µM
O=c1cc(-c2ccccc2)oc2c1ccc1ccccc12 | Cyp2b1 | fluorimetric PROD | recombinant supersomes | 6 min, pH 7.6, together with: pentoxyresorufin | 13 ± 2.6 µM
OC[C@H]1OC(O)[C@H](O)[C@@H](O)[C@@H]1O (stereo partly shown) | Hexokinase-3 (HK3, Homo sapiens, UniProt P52790, R480W) | substrate inhibition |  | mutant R480W, partial substrate inhibition model, together with: ATP 20 mM | 2900 ± 800 µM
C#Cc1ccc2oc(-c3ccccc3)cc(=O)c2c1 | Cyp2b1 | fluorimetric PROD | recombinant supersomes | 6 min, pH 7.6, together with: pentoxyresorufin | > 25 µM
Nc1ccn([C@H]2CC[C@@H](CO)O2)c(=O)n1 | SLC10A1 | taurocholate uptake, inhibitor | NTCP-expressing HEK293 | together with: 10 µM taurocholate | 2040 ± 1510 µM
C#Cc1ccc2cc(-c3ccccc3)c(=O)oc2c1 | Cyp2b1 | fluorimetric PROD | recombinant supersomes | 6 min, pH 7.6, together with: pentoxyresorufin | > 25 µM
CNC(=C[N+](=O)[O-])NCCSCc1csc(CN(C)C)n1 | SLC10A1 | taurocholate uptake, inhibitor | NTCP-expressing HEK293 | together with: 10 µM taurocholate | 929 ± 3320 µM

A few entries again:
Structure (SMILES) | target | assay | system | setting | Ki
C#Cc1ccc2oc(-c3ccccc3)cc(=O)c2c1 | Cyp2b1 | fluorimetric PROD | recombinant supersomes | 6 min, pH 7.6, together with: pentoxyresorufin | > 25 µM
